Measured values pooled from the literature.
Protocols differ between the studies behind these lines. “And” joins repeats or separate records; there may be more than shown. ± marks the error that the study gave.

Cc1cc(Cl)ccc1OC(C)C(=O)N1CCc2ccccc21 (centres unmarked)
EC50 (Plasmodium falciparum; parasite growth; Dd2): 155 ± 57 nM

CN(C)c1cccc(-c2ccc3ncnc(Nc4ccc(OCc5cccc(F)c5)c(Cl)c4)c3c2)c1
EC50 (Plasmodium falciparum; parasite growth, SYBR Green fluorescence; C235 (TM91C235), drug-resistant): 550 nM

OC(c1cc(C(F)(F)F)nc2c(C(F)(F)F)cccc12)C1CCCCN1 (centres unmarked)
EC50 (Plasmodium falciparum; parasite growth; CAM3 REV): 9.4 ± 2.6 nM

O=C(NCc1ccc(Cl)cn1)C(=O)C(Cc1ccccc1)NC(=O)C1CC(F)CN1C(=O)C(NC(=O)C1CCC(F)(F)CC1)C1CCCCC1 (centres unmarked)
EC50 (HCoV-HKU1; viral replication; human epithelial cells): 970 nM

CCN(CC)CCCC(C)Nc1ccnc2cc(Cl)ccc12 (centres unmarked)
EC50 (Plasmodium falciparum; parasite growth; 3D7): 55.5 ± 27.3 nM

O=S(=O)(c1cccc(-c2ccc3ncnc(Nc4ccc(OCc5cccc(F)c5)c(Cl)c4)c3c2)c1)N1CCCCC1
EC50 (Plasmodium falciparum; parasite growth, SYBR Green; D6; blood stage): 320 nM

CCC1(CC)CC(=O)N(C2c3cc(C(=O)NC4c5ccccc5CC4O)ccc3OC2(C)COC)C(=N)N1 (centres unmarked)
EC50 (Plasmodium falciparum; parasite growth; 3D7; blood stage): 0.7 nM

O=S(=O)(c1ccc(-c2ccc3ncnc(Nc4ccc(OCc5cccc(F)c5)c(Cl)c4)c3c2)cc1)N1CCCCC1
EC50 (Plasmodium falciparum; parasite growth, SYBR Green fluorescence; W2, drug-resistant): 330 nM

CC1(C)Cc2sc(NC(=O)Cc3ccc(S(N)(=O)=O)cc3)c(C#N)c2CN1CC1CCCCC1
EC50 (Dengue virus 2; viral replication; P15-S8 passaged with DMSO): 8.89 nM and 7.67 nM

c1ccc(COc2ccc(Nc3ncnc4ccc(-c5cccc(N6CCOCC6)c5)cc34)cc2)cc1
EC50 (Plasmodium falciparum; parasite growth, SYBR Green; D6; blood stage): > 15000 nM

CC(NC(=O)c1cccc(C(c2ccccc2)N2C(=N)NC(C)(C(C)C)CC2=O)c1)c1ccccc1 (centres unmarked)
EC50 (Plasmodium falciparum; parasite growth; CAM3 REV): 13.7 nM

C[C@H](NC(=O)Cc1cc(F)cc(F)c1)C(=O)N[C@@H]1C(=O)N(C)c2ccccc2-c2ccccc21
EC50 (dengue virus 2; viral replication; Huh-7.5.1, luciferase reporter; 48 h): 55 nM

O=S(=O)(c1ccc(-c2ccc3ncnc(Nc4ccc(OCc5ccc(F)cc5)c(Cl)c4)c3c2)cc1)N1CCOCC1
EC50 (Plasmodium falciparum; parasite growth, SYBR Green; D6; blood stage): 170 nM

O=C1C(O)=C([C@H]2CC[C@H](c3ccc(Cl)cc3)CC2)C(=O)c2ccccc21
EC50 (Plasmodium falciparum; parasite growth; W2Mef): 63.9 ± 18.5 nM

Cc1nc2ccc(-c3ccc(OC(F)(F)F)cc3)cc2c(O)c1C#N
EC50 (Plasmodium falciparum; parasite growth, SYBR Green; 3D7 wild type; 72 h): 158 ± 29 nM

C[C@H](NC(=O)[C@@H](O)c1cc(F)cc(F)c1)C(=O)N[C@@H]1C(=O)N(C)c2ccccc2-c2ccccc21
EC50 (Dengue virus; viral replication, inhibitor, luciferase; NHDF; 48 h): 18.3 nM

CC(C)(C)OC(=O)N1CCN(S(=O)(=O)c2ccc(-c3ccc4ncnc(Nc5ccc(OCc6cccc(F)c6)c(Cl)c5)c4c3)cc2)CC1
EC50 (Plasmodium falciparum; parasite growth, SYBR Green fluorescence; W2, drug-resistant): 580 nM

Cn1c(=O)c(-c2ccccc2Cl)cc2cnc(Nc3cccc(S(C)(=O)=O)c3)nc21
EC50 (Cryptosporidium parvum; parasite growth; HCT-8, UGA1 nanoluciferase; 48 h): 65 ± 5 nM

CCC1(CC)CC(=O)N(C2CCOc3ccc(C(=O)NC4CC(C)(C)Oc5ccccc54)cc32)C(=N)N1 (centres unmarked)
EC50 (Plasmodium falciparum; parasite growth; K1): 0.4 ± 0.2 nM

CCCN(Cc1nnc(-c2ccco2)o1)C(=O)C1CCCN(C(=O)c2ccc(Cl)cc2)C1 (centres unmarked)
EC50 (Plasmodium falciparum; parasite growth; Dd2): 114 ± 47 nM

CN1CCN(S(=O)(=O)c2ccc(-c3ccc4ncnc(Nc5ccc(OCc6ccccc6)cc5)c4c3)cc2)CC1
EC50 (Plasmodium falciparum; parasite growth, SYBR Green fluorescence; C235 (TM91C235), drug-resistant): 36 nM

O=C1NC2(CC2)COc2ncc(F)cc2[C@H]2COCCN2c2ccn3ncc1c3n2
organ weight (Sprague-Dawley rat, female, liver; oral, 20 mg/kg/day, 4 weeks): 11.1 ± 2.33 g

C[C@H]1Cc2c([nH]c3cc(Cl)c(F)cc23)[C@@]2(N1)C(=O)Nc1ccc(Cl)cc12
EC50 (Plasmodium falciparum; parasite growth; Dd2): 1.7 ± 0.2 nM

Some of these lines once more:
Cn1c(=O)c(-c2ccccc2Cl)cc2cnc(Nc3cccc(S(C)(=O)=O)c3)nc21
EC50 (Cryptosporidium parvum; parasite growth; HCT-8, UGA1 nanoluciferase; 48 h): 65 ± 5 nM

CCC1(CC)CC(=O)N(C2CCOc3ccc(C(=O)NC4CC(C)(C)Oc5ccccc54)cc32)C(=N)N1 (centres unmarked)
EC50 (Plasmodium falciparum; parasite growth; K1): 0.4 ± 0.2 nM

CCCN(Cc1nnc(-c2ccco2)o1)C(=O)C1CCCN(C(=O)c2ccc(Cl)cc2)C1 (centres unmarked)
EC50 (Plasmodium falciparum; parasite growth; Dd2): 114 ± 47 nM
